{"data": "Results gathered from unrelated publications", "GRPR": "Gastrin-releasing peptide receptor (GRPR, Homo sapiens, UniProt P30550)", "FFAR2": "Free fatty acid receptor 2 (FFAR2, Homo sapiens, UniProt O15552)", "Sctr": "Sctr (Rattus norvegicus, UniProt P23811)", "note": "Each line is one published result; not all experiments were run side by side. ± gives the spread as reported.", "chain of UniProt O15552 (whole entry, looked up)": "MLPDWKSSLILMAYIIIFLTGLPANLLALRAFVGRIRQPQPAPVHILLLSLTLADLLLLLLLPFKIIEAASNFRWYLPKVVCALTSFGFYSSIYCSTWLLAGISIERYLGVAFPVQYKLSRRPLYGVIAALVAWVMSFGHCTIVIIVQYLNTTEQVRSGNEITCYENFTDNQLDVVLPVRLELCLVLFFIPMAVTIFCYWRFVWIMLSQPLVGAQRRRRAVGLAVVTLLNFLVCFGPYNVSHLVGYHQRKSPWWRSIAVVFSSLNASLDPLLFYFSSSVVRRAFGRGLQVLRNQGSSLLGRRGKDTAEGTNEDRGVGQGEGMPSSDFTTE", "chain of UniProt P23811 (whole entry, looked up)": "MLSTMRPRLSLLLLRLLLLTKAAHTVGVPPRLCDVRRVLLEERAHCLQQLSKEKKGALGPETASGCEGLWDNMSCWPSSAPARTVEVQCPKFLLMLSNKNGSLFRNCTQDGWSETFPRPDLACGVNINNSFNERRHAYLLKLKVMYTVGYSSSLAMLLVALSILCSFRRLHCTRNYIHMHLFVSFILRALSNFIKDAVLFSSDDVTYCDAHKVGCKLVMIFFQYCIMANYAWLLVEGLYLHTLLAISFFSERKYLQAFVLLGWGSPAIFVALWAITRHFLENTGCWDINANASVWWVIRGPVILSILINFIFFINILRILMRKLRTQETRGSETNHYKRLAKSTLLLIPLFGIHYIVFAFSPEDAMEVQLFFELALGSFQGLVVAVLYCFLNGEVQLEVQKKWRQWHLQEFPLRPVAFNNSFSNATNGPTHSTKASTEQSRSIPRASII", "chain of UniProt P30550 (whole entry, looked up)": "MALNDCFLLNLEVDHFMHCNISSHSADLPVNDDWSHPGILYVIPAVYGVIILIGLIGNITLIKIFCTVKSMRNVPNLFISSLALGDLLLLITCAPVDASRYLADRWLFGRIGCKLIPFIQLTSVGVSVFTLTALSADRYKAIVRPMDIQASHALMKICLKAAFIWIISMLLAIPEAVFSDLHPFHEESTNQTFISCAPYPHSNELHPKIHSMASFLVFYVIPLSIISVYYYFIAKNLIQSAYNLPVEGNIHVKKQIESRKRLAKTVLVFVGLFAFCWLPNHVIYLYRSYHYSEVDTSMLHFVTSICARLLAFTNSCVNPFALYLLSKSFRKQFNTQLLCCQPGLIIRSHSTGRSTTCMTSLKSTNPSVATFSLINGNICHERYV", "chain of UniProt P29994 (whole entry, looked up)": "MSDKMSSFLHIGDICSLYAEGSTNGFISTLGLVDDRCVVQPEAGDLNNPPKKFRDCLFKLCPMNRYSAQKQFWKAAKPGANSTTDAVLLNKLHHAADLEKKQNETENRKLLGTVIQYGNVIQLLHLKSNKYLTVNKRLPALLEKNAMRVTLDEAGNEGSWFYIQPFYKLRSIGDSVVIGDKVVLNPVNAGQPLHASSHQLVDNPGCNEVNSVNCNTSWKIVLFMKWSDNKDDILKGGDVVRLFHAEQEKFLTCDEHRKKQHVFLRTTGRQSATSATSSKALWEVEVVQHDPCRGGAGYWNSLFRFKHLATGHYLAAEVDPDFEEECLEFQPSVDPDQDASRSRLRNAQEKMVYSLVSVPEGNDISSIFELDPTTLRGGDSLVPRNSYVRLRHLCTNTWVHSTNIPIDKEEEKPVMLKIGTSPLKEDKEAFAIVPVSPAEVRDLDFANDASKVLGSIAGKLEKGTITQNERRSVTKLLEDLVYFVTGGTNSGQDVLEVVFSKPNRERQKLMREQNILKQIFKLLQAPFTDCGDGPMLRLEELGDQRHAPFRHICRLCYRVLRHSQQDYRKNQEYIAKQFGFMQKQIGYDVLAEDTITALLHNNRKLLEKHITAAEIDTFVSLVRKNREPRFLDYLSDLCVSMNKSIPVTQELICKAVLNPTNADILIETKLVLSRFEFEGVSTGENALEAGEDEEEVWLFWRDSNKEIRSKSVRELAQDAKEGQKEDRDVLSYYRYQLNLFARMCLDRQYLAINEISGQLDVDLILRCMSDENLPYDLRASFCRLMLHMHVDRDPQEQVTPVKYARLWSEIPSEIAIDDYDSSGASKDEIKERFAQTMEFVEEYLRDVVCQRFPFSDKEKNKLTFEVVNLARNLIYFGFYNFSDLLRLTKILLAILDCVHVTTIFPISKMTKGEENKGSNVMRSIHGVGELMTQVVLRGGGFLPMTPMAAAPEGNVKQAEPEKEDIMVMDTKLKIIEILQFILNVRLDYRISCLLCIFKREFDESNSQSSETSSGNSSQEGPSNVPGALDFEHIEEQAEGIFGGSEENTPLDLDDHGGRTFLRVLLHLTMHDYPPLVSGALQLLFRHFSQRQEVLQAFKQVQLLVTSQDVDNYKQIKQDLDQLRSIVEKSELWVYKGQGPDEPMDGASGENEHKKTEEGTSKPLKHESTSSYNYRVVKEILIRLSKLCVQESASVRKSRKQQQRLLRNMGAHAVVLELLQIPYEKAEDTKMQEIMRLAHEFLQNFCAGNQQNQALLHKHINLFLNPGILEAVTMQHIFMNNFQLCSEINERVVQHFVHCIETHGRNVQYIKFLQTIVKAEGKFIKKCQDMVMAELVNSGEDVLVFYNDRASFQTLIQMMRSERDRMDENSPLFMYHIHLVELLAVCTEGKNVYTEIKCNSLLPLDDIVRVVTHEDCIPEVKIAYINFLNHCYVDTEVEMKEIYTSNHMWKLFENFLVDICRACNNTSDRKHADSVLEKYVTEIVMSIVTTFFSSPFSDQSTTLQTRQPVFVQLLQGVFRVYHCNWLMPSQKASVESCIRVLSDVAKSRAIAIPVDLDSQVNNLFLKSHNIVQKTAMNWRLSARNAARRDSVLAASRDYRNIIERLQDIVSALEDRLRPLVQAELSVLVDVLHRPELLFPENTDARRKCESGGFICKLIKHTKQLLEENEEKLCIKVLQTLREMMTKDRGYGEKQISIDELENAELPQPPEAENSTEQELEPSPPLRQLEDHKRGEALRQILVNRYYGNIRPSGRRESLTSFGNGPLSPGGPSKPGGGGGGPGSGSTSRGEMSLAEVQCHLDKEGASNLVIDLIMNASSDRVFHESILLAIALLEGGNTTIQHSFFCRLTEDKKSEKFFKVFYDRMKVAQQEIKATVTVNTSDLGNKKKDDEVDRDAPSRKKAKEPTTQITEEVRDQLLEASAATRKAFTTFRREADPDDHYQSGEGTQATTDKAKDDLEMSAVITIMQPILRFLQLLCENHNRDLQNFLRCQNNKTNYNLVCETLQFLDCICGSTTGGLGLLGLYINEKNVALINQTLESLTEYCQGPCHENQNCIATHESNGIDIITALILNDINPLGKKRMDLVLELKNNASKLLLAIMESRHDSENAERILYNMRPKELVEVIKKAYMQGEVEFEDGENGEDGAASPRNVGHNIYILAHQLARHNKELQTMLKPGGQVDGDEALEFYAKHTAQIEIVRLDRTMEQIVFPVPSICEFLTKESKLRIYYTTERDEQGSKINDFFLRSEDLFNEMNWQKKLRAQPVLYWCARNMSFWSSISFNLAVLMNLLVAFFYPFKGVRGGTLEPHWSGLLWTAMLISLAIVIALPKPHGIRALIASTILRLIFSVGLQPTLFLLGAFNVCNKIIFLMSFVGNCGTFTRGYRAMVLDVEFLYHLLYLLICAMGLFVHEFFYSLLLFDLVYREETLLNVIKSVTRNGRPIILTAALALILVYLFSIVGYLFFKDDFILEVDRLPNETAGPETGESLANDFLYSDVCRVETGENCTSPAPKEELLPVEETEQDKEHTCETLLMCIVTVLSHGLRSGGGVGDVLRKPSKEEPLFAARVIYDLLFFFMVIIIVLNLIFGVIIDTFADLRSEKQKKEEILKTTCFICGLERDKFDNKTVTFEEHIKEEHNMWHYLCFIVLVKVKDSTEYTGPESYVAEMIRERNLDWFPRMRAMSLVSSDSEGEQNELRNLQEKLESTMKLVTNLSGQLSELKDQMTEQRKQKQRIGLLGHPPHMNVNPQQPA", "chain of UniProt Q6DWJ6 (whole entry, looked up)": "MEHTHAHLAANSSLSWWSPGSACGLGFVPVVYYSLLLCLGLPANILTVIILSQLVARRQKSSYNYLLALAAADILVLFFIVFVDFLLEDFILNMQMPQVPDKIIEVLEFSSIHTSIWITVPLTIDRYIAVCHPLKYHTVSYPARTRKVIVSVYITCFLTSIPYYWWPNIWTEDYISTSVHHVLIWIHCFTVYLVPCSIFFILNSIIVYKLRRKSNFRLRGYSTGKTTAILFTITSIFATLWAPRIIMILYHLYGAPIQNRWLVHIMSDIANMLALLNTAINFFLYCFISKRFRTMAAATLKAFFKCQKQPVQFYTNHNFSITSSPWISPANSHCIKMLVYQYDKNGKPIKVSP", "chain of UniProt Q3TBT3 (whole entry, looked up)": "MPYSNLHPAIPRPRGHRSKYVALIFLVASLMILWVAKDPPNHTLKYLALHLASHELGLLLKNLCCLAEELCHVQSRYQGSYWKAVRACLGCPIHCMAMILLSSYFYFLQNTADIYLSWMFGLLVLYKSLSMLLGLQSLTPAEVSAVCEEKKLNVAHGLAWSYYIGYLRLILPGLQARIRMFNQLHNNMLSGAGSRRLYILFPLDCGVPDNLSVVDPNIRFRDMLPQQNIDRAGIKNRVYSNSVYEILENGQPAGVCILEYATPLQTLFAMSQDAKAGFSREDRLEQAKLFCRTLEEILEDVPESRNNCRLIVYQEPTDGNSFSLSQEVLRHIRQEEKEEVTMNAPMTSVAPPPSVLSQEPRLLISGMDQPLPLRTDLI", "chain of UniProt Q14011 (whole entry, looked up)": "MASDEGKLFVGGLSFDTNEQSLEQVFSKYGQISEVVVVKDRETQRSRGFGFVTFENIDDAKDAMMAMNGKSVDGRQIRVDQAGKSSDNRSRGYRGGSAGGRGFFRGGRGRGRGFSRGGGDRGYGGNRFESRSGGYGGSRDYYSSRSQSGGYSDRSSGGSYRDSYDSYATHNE"}
{"Structure (SMILES)": "CC(=O)Oc1ccccc1C(=O)Nc1ccccc1Sc1ncnc2scc(-c3ccccc3)c12", "target": "CIRBP (Homo sapiens, UniProt Q14011)", "test": "thermal stabilisation, cellular thermal shift", "test system": "LOX-IM-VI overexpressing GFP-CIRBP", "setting": "3 h, 57 °C", "EC50": "4700 nM"}
{"Structure (SMILES)": "CCC(CC)N[C@H](Cc1ccccc1)C(=O)N[C@@H](CCC(N)=O)C(=O)N[C@@H](Cc1c[nH]c2ccccc12)C(=O)N[C@@H](C)C(=O)N[C@H](C(=O)N[C@H](C)C(=O)N[C@@H](Cc1c[nH]cn1)C(=O)N[C@@H](CC(C)C)C(=O)N[C@@H](CC(C)C)C(N)=O)C(C)C", "target": "GRPR", "test": "inositol phosphate formation, agonist", "test system": "BALB/3T3 transfected with human GRPR", "setting": "45 min, 37 °C", "how to read": "baseline: 1 µM GRP", "EC50": "27.5 ± 1.3 nM"}
{"Structure (SMILES)": "CC1(C)C(=O)C(O)=C[C@]2(C)[C@H]3C(=O)C=C4[C@@H]5C[C@@](C)(NC(=O)NCc6ccco6)CC[C@]5(C)CC[C@@]4(C)[C@]3(C)CC[C@@H]12", "target": "Stimulator of interferon genes protein (Sting1, Mus musculus, UniProt Q3TBT3)", "test": "agonist", "EC50": "7540 nM"}
{"Structure (SMILES)": "C/C=C/CC(=O)O", "target": "FFAR2", "test": "agonist", "EC50": "110000 nM"}
{"Structure (SMILES)": "CSCC[C@H](NC(=O)[C@H](CC(C)C)NC(=O)[C@H](Cc1cnc[nH]1)NC(=O)CNC(=O)[C@@H](NC(=O)[C@H](C)NC(=O)[C@H](Cc1c[nH]c2ccccc12)NC(=O)[C@H](Cc1cnc[nH]1)NC(=O)[C@H](CC(N)=O)NC(=O)CN)C(C)C)C(N)=O", "target": "GRPR", "test": "inositol phosphate, agonist", "EC50": "1.51 nM"}
{"Structure (SMILES)": "Nc1ncnc2c1ncn2[C@@H]1O[C@H](CO)[C@@H](O[C@H]2O[C@H](CO)[C@@H](OP(=O)(O)O)[C@H](OP(=O)(O)O)[C@H]2O)[C@H]1O", "target": "Inositol 1,4,5-trisphosphate-gated calcium channel ITPR1 (Itpr1, Rattus norvegicus, UniProt P29994)", "test": "calcium release, agonist", "test system": "DT40 (permeabilised, IP3R1 wild type)", "EC50": "160 nM"}
{"Structure (SMILES)": "CC(C)C[C@H](NC(=O)CNC(=O)[C@H](CCC(N)=O)NC(=O)[C@H](CC(C)C)NC(=O)[C@H](CC(C)C)NC(=O)[C@H](CCCNC(=N)N)NC(=O)[C@H](CCC(N)=O)NC(=O)[C@H](CC(C)C)NC(=O)[C@H](CCCNC(=N)N)NC(=O)[C@H](C)NC(=O)[C@H](CO)NC(=O)[C@H](C)NC(=O)[C@H](CCC(N)=O)NC(=O)[C@H](CC(C)C)NC(=O)[C@H](CCCNC(=N)N)NC(=O)[C@H](CO)NC(=O)[C@H](CC(C)C)NC(=O)[C@H](CCC(=O)O)NC(=O)[C@H](CO)NC(=O)[C@@H](NC(=O)[C@H](Cc1ccccc1)NC(=O)[C@@H](NC(=O)CNC(=O)[C@H](CC(=O)O)NC(=O)[C@H](CO)NC(=O)[C@@H](N)Cc1c[nH]cn1)[C@@H](C)O)[C@@H](C)O)C(=O)N[C@H](C(N)=O)C(C)C", "target": "Sctr", "test": "cAMP production, agonist", "test system": "CHO-SecR", "setting": "30 min, 37 °C, added: 1 mM IBMX", "EC50": "2.6 ± 0.6 nM"}
{"Structure (SMILES)": "C/C=C(\\C)C(=O)O", "target": "FFAR2", "test": "agonist", "EC50": "162000 nM"}
{"Structure (SMILES)": "CC(C)C[C@H](NC(=O)CNC(=O)[C@H](CCC(N)=O)NC(=O)[C@H](CC(C)C)NC(=O)[C@H](CC(C)C)NC(=O)[C@H](CCCNC(=N)N)NC(=O)[C@H](CCC(N)=O)NC(=O)[C@H](CC(C)C)NC(=O)[C@H](CCCNC(=N)N)NC(=O)[C@H](C)NC(=O)[C@H](CO)NC(=O)[C@H](CC(=O)O)NC(=O)[C@H](CCC(N)=O)NC(=O)[C@H](CC(C)C)NC(=O)[C@H](CCCNC(=N)N)NC(=O)[C@H](CO)NC(=O)[C@H](CC(C)C)NC(=O)[C@H](CCC(=O)O)NC(=O)[C@H](CO)NC(=O)[C@@H](NC(=O)[C@H](Cc1ccccc1)NC(=O)[C@@H](NC(=O)CNC(=O)[C@H](CC(=O)O)NC(=O)[C@H](CO)NC(=O)[C@@H](N)Cc1c[nH]cn1)[C@@H](C)O)[C@@H](C)O)C(=O)N[C@@H](C)C(N)=O", "target": "Sctr", "test": "cAMP production, agonist", "test system": "CHO-SecR", "setting": "30 min, 37 °C, added: 1 mM IBMX", "EC50": "0.5 ± 0.2 nM"}
{"Structure (SMILES)": "CSCC[C@H](NC(=O)[C@H](CO)NC(=O)[C@H](Cc1ccc(O)cc1)NC(=O)[C@@H](N)CO)C(=O)N[C@@H](CCC(=O)O)C(=O)N[C@@H](Cc1c[nH]cn1)C(=O)N[C@@H](Cc1ccccc1)C(=O)N[C@@H](CCCNC(=N)N)C(=O)N[C@@H](Cc1c[nH]c2ccccc12)C(=O)NCC(=O)O", "target": "Probable G-protein coupled receptor 139 (GPR139, Homo sapiens, UniProt Q6DWJ6)", "test": "calcium mobilisation, agonist, Fluo-4", "test system": "CHO transfected", "setting": "mean of triplicates", "EC50": "318 nM"}
